Results pooled from the literature.
Protocols differ between the studies behind these lines. Several values in a cell are separate wells, animals, samples, runs or records.
Cell line: HOP-92

`Cn1cncc1C1=CN(c2ncnc3[nH]cnc23)CCS1` has a TGI of 77.6 µM (lung cancer).
The TGI of `Cc1cc2c(cc1C)[n+](Cc1ccc3ccccc3c1)cn2Cc1ccc2ccccc2c1.[Br-]` is reported as 2.53 µM (NCI60 five-dose screen).
With `CCCCN1CCN(c2ccc3[nH]c(-c4ccc5[nH]c(-c6ccc(C(F)(F)F)cc6)nc5c4)nc3c2)CC1` the growth percent was -13.5% (SRB; 10 µM, 48 h).
The cell growth of `Cc1n[nH]c2nc(-c3ccc(Cl)cc3)c3c(NC(=O)c4ccccc4)nnc-3n12` is reported as 119% (SRB; 10 µM, NCI60 single-dose screen; baseline: untreated).
For `CCCCN1CCN(c2ccc3nc(-c4ccc5nc(-c6cc(OC)ccc6OC)[nH]c5c4)[nH]c3c2)CC1`, the growth percent was 87.4% (SRB; 10 µM, 48 h).
For `NNc1nc(-c2ccc(Cl)cc2)c2c(NC(=O)c3ccccc3)nnc-2[nH]1`, the cell growth was 94.9% (SRB; 10 µM, NCI60 single-dose screen; baseline: untreated).
The growth percent of `CCCN1CCN(c2ccc3[nH]c(-c4ccc5[nH]c(-c6ccc(C(F)(F)F)cc6)nc5c4)nc3c2)CC1` is reported as 63% (SRB; 10 µM, 48 h).
With `Cc1cc(=O)[nH]n1-c1nc(-c2ccc(Cl)cc2)c2c(NC(=O)c3ccccc3)nnc-2[nH]1` the cell growth was 106% (SRB; 10 µM, NCI60 single-dose screen; baseline: untreated).
For `CCCCc1n(Cc2ccc3ccccc3c2)c2ccccc2[n+]1Cc1ccc2ccccc2c1.[Br-]`, the TGI was 1.35 µM (NCI60 five-dose screen).
With `CCCN1CCN(c2ccc3nc(-c4ccc5nc(-c6cc(OC)ccc6OC)[nH]c5c4)[nH]c3c2)CC1` the growth percent was 110% (SRB; 10 µM, 48 h).
With `CCCCCCCCCCCCCCCCCCOc1ccc(CC(=O)OCC[N+](C)(C)C)cc1` the growth inhibition was under 0% (SRB; 10 µM).
For `CCCC(CCC)C(=O)OCc1cn(-c2c3ccccc3nc3ccccc23)nn1`, the growth percentage was 73% (NCI60 single-dose screen; 10 µM).
With `Cc1cc(-c2ccccc2)n(-c2nc(-c3ccc(Cl)cc3)c3c(NC(=O)c4ccccc4)nnc-3[nH]2)n1` the cell growth was 93.7% (SRB; 10 µM, NCI60 single-dose screen; baseline: untreated).
The growth percentage of `Cc1cc(=O)[nH]c(=O)n1Cc1cn(-c2c3ccccc3nc3ccccc23)nn1` is reported as 67.6% (NCI60 single-dose screen; 10 µM).
The cell growth of `CSc1nc(-c2ccc(Cl)cc2)c2c(NC(=O)c3ccccc3)nnc-2[nH]1` is reported as -95% (SRB; 10 µM, NCI60 single-dose screen; baseline: untreated).
For `CCN(CC)c1ccc(C=NNC(=O)CSc2nc3ccccc3c(=O)n2Cc2ccc(S(N)(=O)=O)cc2)c(O)c1`, the TGI was over 100 µM (NCI five-dose screen).
`Cc1cc(=O)[nH]c(=O)n1Cc1cn(-c2cc3ccccc3oc2=O)nn1` has a growth percentage of 78.4% (NCI60 single-dose screen; 10 µM).
`C#C[C@@]1(O)[C@@H](CO)O[C@@H](n2cc(Cl)c3c(N)ncnc32)[C@@H]1O` gave a TGI of 3.74 µM and 3.33 µM (SRB; NCI-60 screen).
The growth percent of `CCCCN1CCN(c2ccc3[nH]c(-c4ccc5[nH]c(-c6ccc(OCC)c(OCC)c6)nc5c4)nc3c2)CC1` is reported as 81.3% (SRB; 10 µM, 48 h).
The TGI of `CCCc1n(Cc2ccc3ccccc3c2)c2ccccc2[n+]1Cc1ccc2ccccc2c1.[Br-]` is reported as 0.911 µM (NCI60 five-dose screen).
The growth inhibition of `CCCCCCCCCCCCCCCCCCOc1ccc(CC(=O)OCC[N+]2(C)CCOCC2)cc1` is reported as under 0% (SRB; 10 µM).
The growth percent of `CCCCN1CCN(c2ccc3[nH]c(-c4ccc5[nH]c(-c6ccc(OCC)cc6)nc5c4)nc3c2)CC1` is reported as 95.9% (SRB; 10 µM, 48 h).
`CCOC(=O)CSc1nc(-c2ccc(Cl)cc2)c2c(NC(=O)c3ccccc3)nnc-2[nH]1` gave a cell growth of 109% (SRB; 10 µM, NCI60 single-dose screen; baseline: untreated).

A few entries again:
`Cn1cncc1C1=CN(c2ncnc3[nH]cnc23)CCS1` has a TGI of 77.6 µM (lung cancer).
The TGI of `CCCc1n(Cc2ccc3ccccc3c2)c2ccccc2[n+]1Cc1ccc2ccccc2c1.[Br-]` is reported as 0.911 µM (NCI60 five-dose screen).
For `NNc1nc(-c2ccc(Cl)cc2)c2c(NC(=O)c3ccccc3)nnc-2[nH]1`, the cell growth was 94.9% (SRB; 10 µM, NCI60 single-dose screen; baseline: untreated).
